Measured values pooled from the literature.
Compare with care: the assays were run in different laboratories.
Target: Vascular endothelial growth factor receptor 1 (FLT1, Homo sapiens, UniProt P17948)

COc1c(Cl)cccc1Nc1c(-c2ccncc2C#C[C@@]2(C)CCCN2C(=O)/C=C/CN(C)C)[nH]c2c1C(=O)NCC2  remaining binding (cell-free assay, competition with immobilised ligand; 3 µM): 83%
COc1ccc(NC(=O)Nc2ccc3c(c2)C(=O)N(C(C)CO)CC(C)C(CN(C)Cc2ccc4c(c2)OCO4)O3)cc1 (centres unmarked)  remaining activity (kinase activity; 0.03 µM; baseline: control): 90%
NC(=O)C[C@H]1CCc2sc3ncnc(O[C@H]4CC[C@H](N5CCOCC5)CC4)c3c21  inhibition (enzyme activity, inhibitor; 10 µM): 15%
Nc1ncc2c(n1)-c1c([nH]c3ccc(C4=CCOCC4)cc13)CCC2  remaining binding (binding, competition with immobilised ligand; 1 µM): 100%
CCN1CCN(Cc2ccc(C(=O)Nc3ccc(C)c(NCc4cnc5[nH]ccc5c4OC)c3)cc2C(F)(F)F)CC1  remaining binding (binding, competition with immobilised ligand; 1 µM): 9.2%
Cc1cccc(O[C@H]2CCC[C@@H](C(C)CNCc3ccncc3)C2)c1 (relative stereo)  inhibition (cell-free assay; 1 µM): 18%
CNC1C[S+]2CC[S+]3CC[S+](C1)[Ru-4]321([N]=C=S)[n]2c3ccc(OC)cc3c3c4c(c5cc(F)c[n+]1c5c32)C(=O)NC4=O (centres unmarked)  remaining binding (KinomeScan; 0.1 µM; baseline: untreated): 100%
C=CC(=O)N1CCc2ccc(-n3c(=O)ccc4cnc5ccc(-c6cnn(C)c6)cc5c43)cc21  remaining binding (KINOMEscan; 1 µM; baseline: DMSO control): 78%
C=CC(=O)Nc1cccc(-c2cnc3[nH]cc(C(=O)NC(C)(C)C)c3n2)c1  inhibition (kinase activity; 0.1 µM): 4%
Cc1ccc(-c2c(/C=C(\C#N)C(=O)NC(C)C)n(CCCO)c3ncnc(N)c23)cc1  remaining binding (cell-free assay, competition with immobilised ligand; 1 µM): 85%
Cc1cccc(-c2ccc3nc(NC(=O)C4CCCO4)nn3c2)c1 (centres unmarked)  remaining activity (enzyme activity, Dundee kinase panel; 10 µM): 57%
c1ccc2c(Nc3cc(C4CCC4)[nH]n3)nc(Nc3ccc4nc[nH]c4c3)nc2c1  remaining activity (enzyme activity, inhibitor; 0.25 µM): 2%
COc1cc(OC)c(F)c(/C=C/c2cnc3ccn(S(=O)(=O)c4cn(CCF)cn4)c3n2)c1F  inhibition (10 nM): 0%
C=CC(=O)N1CCCC(n2c(=O)c3ncccc3n(Cc3ccc(Oc4ccccc4)cc3)c2=O)C1 (centres unmarked)  remaining binding (cell-free assay, competition with immobilised ligand; 1 µM): 100%
Nc1nc(Nc2ccccc2)sc1C(=O)c1ccccc1  remaining activity (enzyme activity, inhibitor; 10 µM): 30%
Cc1cccc(-c2ccc3nc(NC(=O)C4CCOCC4)nn3c2)c1  remaining activity (enzyme activity, Dundee kinase panel; 10 µM): 74%
COc1cc(Nc2nccc(-c3cnn4nc(OC)ccc34)n2)cc(C(F)(F)F)c1  remaining binding (binding, competition with immobilised ligand; 1 µM): 100%
O=C(Nc1ccc(Oc2ncnc3[nH]cc(-c4ccccc4)c23)c(F)c1)c1c2n(n(-c3cc(F)ccc3F)c1=O)CCCC2  inhibition (enzyme activity, inhibitor; 0.5 µM): 21%
Cc1ccc(C(=O)Nc2cccc(C(F)(F)F)c2)cc1Nc1cncc(C(N)=O)c1  remaining binding (binding, competition with immobilised ligand; 1 µM): 33%
Cc1cnc2nc1Nc1cccc(c1)COC/C=C/COCc1cc(ccc1OCCN1CCOCC1)N2  remaining binding (binding; 0.1 µM): 65%
